# Published values from different studies.
# Values joined by “and” are separate records of one study, mostly repeats; a detail may differ. ± gives the spread as reported.
SMILES,target or system,test,system,setting,how to read,quantity,result
N#Cc1ccn2c(-c3ccncc3)c(-c3ccc(F)cc3)nc2c1,,"kinase binding, competitor, MIB/MS competition, item: RIO2",Candida albicans cell lysate,100 nM,relative to: DMSO,log2 fold change,-0.234
CC(C)NCC(O)c1ccc(O)c(O)c1 (centres unmarked),,,"ventricular cardiomyocytes, C57BL/6 mouse","dose not given, 0.46 s",,sarcomere length,1.66 µm
C[C@H]1C[C@H]2CSC(N)=N[C@@]2(c2nc(NC(=O)c3ccc(OC(F)F)cn3)cs2)CO1,,item: Aβx-40,"healthy adults, plasma","275 mg once daily, day 1",relative to: placebo,percent change from baseline,-70.4%
CC(C)C[C@H](NC(=O)C[C@H](O)[C@H](CC(C)C)NC(=O)[C@H](Cc1c[nH]cn1)NC(=O)CNC(=O)[C@@H](NC(=O)[C@H](C)NC(=O)[C@H](Cc1c[nH]c2ccccc12)NC(=O)[C@H](CCC(N)=O)NC(=O)[C@@H](Cc1ccccc1)NC(=O)COCCOCCNC(=O)CCC(C(=O)O)N1CCN(CC(=O)O)CCN(CC(=O)O)CCN(CC(=O)O)CC1)C(C)C)C(N)=O (some centres unmarked) [lutetium-177 labelled],,,"BALB/c nu/nu mice, female, kidneys","100 pmol, 30 min, time course 0.5 h, together with: PA 300 µg",,tissue uptake,10.2 ± 1.7 %ID/g
CCOc1c([C@H](C)n2nc(C)c3c(N)ncnc32)cc(Cl)c(F)c1[C@@H]1CNC(=O)C1,,,human B-cell malignancy patients,"oral, 30 mg once daily",,observations with ΔQTcF 30-60 ms,0.8%
COc1ncc(-c2nc3c(n2C(C)C)[C@H](c2ccc(Cl)cc2)N(c2cc(Cl)cn(C)c2=O)C3=O)c(OC)n1,,International Working Group criteria,human acute myeloid leukemia patients,"oral, 150 mg, response Unknown, high-dose, other doses",,best overall response,0%
O=C(NCC1CCOCC1)c1ccc(C2CCCCC2)cc1,,hepatocyte stability,cryopreserved rat hepatocytes,1 µM,,hepatic clearance,46 mL/min/kg
O=C(NCc1ccc(CNS(=O)(=O)c2ccccc2)cc1)c1c(Cl)cc(Cl)cc1Cl,,ear oedema,mouse,"10 mg/kg, together with: xylene",,inhibition,no effect
O=C(O)CNC(=O)Cc1ccccc1,,,"ventricular cardiomyocytes, C57BL/6 mouse","dose not given, 0.74 s",,sarcomere length,1.72 µm
Cn1cc(-c2ccc(-c3cncc(Cl)c3N3CCC4(CCNC4=O)CC3)cc2)cn1,COLO 205,"gene expression, microarray, item: KIAA0101 mRNA",,"concentration not given, 6 h",relative to: untreated cells,log2 fold change,-1.43
N#Cc1ccc2c(c1)[C@H]1CCCN(C(=O)c3ccc4[nH]cnc4c3)[C@H]1C2,,item: androstenedione,"human female, Phase II trial","oral, 80 mg once daily, HPA axis, mean",,change from baseline,1.47 nmol/L
COCCN(C)C(=O)c1ccc(C2CCCCC2)cc1,,hepatocyte stability,cryopreserved mouse hepatocytes,1 µM,,hepatic clearance,79 mL/min/kg
CN(C)C(=O)c1cc2cnc(Nc3ccc(N4CCNCC4)cn3)nc2n1C1CCCC1,,"RNA-seq GSEA, item: HALLMARK_MITOTIC_SPINDLE",MB002 tumour,"concentration not given, in vivo","relative to: vehicle, direction not given",GSEA enrichment score,0.383
CC1(C)CCC(CN2CCN(c3ccc(C(=O)NS(=O)(=O)c4ccc(NCC5CCOCC5)c([N+](=O)[O-])c4)c(Oc4cnc5[nH]ccc5c4)c3)CC2)=C(c2ccc(Cl)cc2)C1,,cell killing,"primary canine neoplastic B cells, dog 40",24 h,,EC50,1270 nM
CC(C)[C@H](NC(=O)[C@H](Cc1ccc(O)cc1)NC(=O)[C@H](Cc1ccc(O)cc1)NC(=O)[C@@H]1CCCN1C(=O)[C@H](CCC(=O)O)NC(=O)[C@H](CCC(=O)O)NC(=O)[C@H](Cc1c[nH]c2ccccc12)NC(=O)[C@@H]1CCCN1C(=O)[C@@H](NC(=O)[C@H](CCC(N)=O)NC(=O)c1ccc2c(c1)C(=O)OC21c2ccc(O)cc2Oc2cc(O)ccc21)C(C)C)C(=O)N[C@H](C(=O)N[C@@H](CCCCN)C(=O)N[C@@H](CCCCN)C(=O)N[C@@H](CO)C(=O)N[C@@H](CO)C(=O)NCC(=O)NCC(N)=O)C(C)C,,surgeon confidence in nerve,"human head and neck surgery, nerves","500 mg, much improved",relative to: white light,share of responses,14.2%
C[C@H](Oc1ccc(Br)cc1-c1ccon1)C(=O)O,,muscle velocity recovery cycle,"human, tibialis anterior muscle","400 mg once daily, first response peak at 30 Hz, multiple ascending dose",,difference from placebo,8.69%
OC(CCN1CCCCC1)(c1ccccc1)C1CC2C=CC1C2 (centres unmarked),,resting-state EEG,healthy elderly humans,"oral, 4 mg, eyes closed, LS mean",,EEG Alpha1-power Pz-O2,12.2 µV²
Cc1n[nH]c2ccc(-c3cc(OC[C@@H](N)Cc4ccccc4)cnc3-c3ccoc3)cc12,,"kinase binding, competitor, MIB/MS competition, item: AKL1",Candida albicans cell lysate,1 µM,relative to: DMSO,log2 fold change,-1.01
COC(=O)c1cc(O)c(O)c(O)c1,,glucuronidation kinetics,Wistar rat liver microsomes,,,substrate inhibition constant,54.9 ± 32.9 µM
CSCCNc1nc(SCCC(F)(F)F)nc2c1ncn2[C@@H]1O[C@H](COP(=O)(O)OP(=O)(O)C(Cl)(Cl)P(=O)(O)O)[C@@H](O)[C@H]1O,,"ADP-induced platelet aggregation, LTA, >59% aggregation","human patients, platelet-rich plasma","dose not given, 4 to 6 h, together with: ADP 20 µM",,patients with high reactivity,68.4%
CN[C@@H]1COc2c(S(=O)(=O)NC(=O)Nc3c4c(cc5c3CCC5)CCC4)cnn2C1,,item: IL-1β,"human participants, whole blood ex vivo","1800 mg single dose, 8 h, together with: LPS/ATP",relative to: baseline,inhibition,99.8%
O=C1Nc2cc3[nH]nc(-c4ccncc4)c3cc2CN1Cc1ccccc1,,RECIST v1.1,"human, relapsed or refractory advanced solid tumours","intravenous, 9.6 mg/kg, pooled schedules",,"stable disease, best response",22%
N#Cc1ccc2c(-c3ccncc3)c(-c3ccc(F)cc3)nn2c1,,"kinase binding, competitor, MIB/MS competition, item: RIM8",Candida albicans cell lysate,1 µM,relative to: DMSO,log2 fold change,-0.172
O=C(NC[C@H]1CN(c2ccc(N3CCOCC3=O)cc2)C(=O)O1)c1ccc(Cl)s1,,,"human moderate renal impairment, plasma","10 mg, mean, unit not given",relative to: baseline,prothrombin time AUC(0-48h),70.4
C[C@H]1O[C@@H](O[C@H]2CC[C@@]3(C)[C@@H](CC[C@]4(C)[C@@H]3C=C[C@]35OC[C@@]6(CCC(C)(C)C[C@H]63)[C@@H](O)C[C@]54C)[C@]2(C)CO)[C@H](O)[C@@H](O[C@@H]2O[C@H](CO)[C@@H](O)[C@H](O)[C@H]2O)[C@H]1O,,"Western blot, item: PPARα","chronic-plus-binge ethanol-fed mice, liver","dose not given, high dose, unit not given",relative to: β-actin,protein level,0.92 and 1.38 and 0.941
NC(=O)c1cnc2[nH]ccc2c1N[C@@H]1[C@@H]2CC3C[C@H]1C[C@@](O)(C3)C2,,"flow cytometry, item: CD4+ naive T cells","Japanese healthy subjects, peripheral blood","oral, 10 mg twice daily, day 4",,change from baseline,-1.47%

# Some of these lines once more:
SMILES,target or system,test,system,setting,how to read,quantity,result
Cc1n[nH]c2ccc(-c3cc(OC[C@@H](N)Cc4ccccc4)cnc3-c3ccoc3)cc12,,"kinase binding, competitor, MIB/MS competition, item: AKL1",Candida albicans cell lysate,1 µM,relative to: DMSO,log2 fold change,-1.01
O=C(NCC1CCOCC1)c1ccc(C2CCCCC2)cc1,,hepatocyte stability,cryopreserved rat hepatocytes,1 µM,,hepatic clearance,46 mL/min/kg
Cn1cc(-c2ccc(-c3cncc(Cl)c3N3CCC4(CCNC4=O)CC3)cc2)cn1,COLO 205,"gene expression, microarray, item: KIAA0101 mRNA",,"concentration not given, 6 h",relative to: untreated cells,log2 fold change,-1.43
CC(C)[C@H](NC(=O)[C@H](Cc1ccc(O)cc1)NC(=O)[C@H](Cc1ccc(O)cc1)NC(=O)[C@@H]1CCCN1C(=O)[C@H](CCC(=O)O)NC(=O)[C@H](CCC(=O)O)NC(=O)[C@H](Cc1c[nH]c2ccccc12)NC(=O)[C@@H]1CCCN1C(=O)[C@@H](NC(=O)[C@H](CCC(N)=O)NC(=O)c1ccc2c(c1)C(=O)OC21c2ccc(O)cc2Oc2cc(O)ccc21)C(C)C)C(=O)N[C@H](C(=O)N[C@@H](CCCCN)C(=O)N[C@@H](CCCCN)C(=O)N[C@@H](CO)C(=O)N[C@@H](CO)C(=O)NCC(=O)NCC(N)=O)C(C)C,,surgeon confidence in nerve,"human head and neck surgery, nerves","500 mg, much improved",relative to: white light,share of responses,14.2%
